{"data": "Assay results from different studies", "B1": "PPP2R5A E378R (Homo sapiens, UniProt Q15172-1); chain MSSSSPPAGAASAAISASEKVDGFTRKSVRKAQRQKRSQGSSQFRSQGSQAELHPLPQLKDATSNEQQELFCQKLQQCCILFDFMDSVSDLKSKEIKRATLNELVEYVSTNRGVIVESAYSDIVKMISANIFRTLPPSDNPDFDPEEDEPTLEASWPHIQLVYEFFLRFLESPDFQPSIAKRYIDQKFVQQLLELFDSEDPRERDFLKTVLHRIYGKFLGLRAFIRKQINNIFLRFIYETEHFNGVAELLEILGSIINGFALPLKAEHKQFLMKVLIPMHTAKGLALFHAQLAYCVVQFLEKDTTLTEPVIRGLLKFWPKTCSQKEVMFLGEIEEILDVIEPTQFKKIEEPLFKQISKCVSSSHFQVAERALYFWNNRYILSLIEENIDKILPIMFASLYKISKEHWNPTIVALVYNVLKTLMEMNGKLFDDLTSSYKAERQREKKKELEREELWKKLEELKLKKALEKQNSAYNMHSILSNTSAE", "B2": "PPP2R5A E106R (Homo sapiens, UniProt Q15172-1); chain MSSSSPPAGAASAAISASEKVDGFTRKSVRKAQRQKRSQGSSQFRSQGSQAELHPLPQLKDATSNEQQELFCQKLQQCCILFDFMDSVSDLKSKEIKRATLNELVRYVSTNRGVIVESAYSDIVKMISANIFRTLPPSDNPDFDPEEDEPTLEASWPHIQLVYEFFLRFLESPDFQPSIAKRYIDQKFVQQLLELFDSEDPRERDFLKTVLHRIYGKFLGLRAFIRKQINNIFLRFIYETEHFNGVAELLEILGSIINGFALPLKAEHKQFLMKVLIPMHTAKGLALFHAQLAYCVVQFLEKDTTLTEPVIRGLLKFWPKTCSQKEVMFLGEIEEILDVIEPTQFKKIEEPLFKQISKCVSSSHFQVAERALYFWNNEYILSLIEENIDKILPIMFASLYKISKEHWNPTIVALVYNVLKTLMEMNGKLFDDLTSSYKAERQREKKKELEREELWKKLEELKLKKALEKQNSAYNMHSILSNTSAE", "B3": "Lqq V toxin, rhodamine on Lys60 (Leiurus quinquestriatus quinquestriatus, UniProt P01481); ends and bridges not checked; also: 125I-labelled, site not given here; rhodamine on Lys60; chain LKDGYIVDDKNCTFFCGRNAYCNDECKKKGGESGYCQWASPYGNACWCYKLPDRVSIKEK(6‑carboxytetramethylrhodamine acetamide)GRCN", "B4": "abpA 1-195 (Streptococcus gordonii, UniProt A8AZZ3); sequence looked up; chain MKKVLLSSVVALTLFAAAAPVFSADEATDAARNNDGAYYLQTQFTNADKVNEYLAQHDGEIRAEAAADPAVVAAKAALDAVEGGSHNYGEVKAAYEAAFNNAFNAVRNKYVQQFQATYNNATEQEGKTYIQGETPEQANARYLKRVGAANNQNPAAEDKGATTPASKEEAKKSEAAAKNAGKAAGKALPKTSAVK", "B5": "bbk32 21-354 (Borrelia burgdorferi, UniProt O50835); chain DLFIRYEMKEESPGLFDKGNSILETSEESIKKPMNKKGKGKIARKKGKSKVSRKEPYIHSLKRDSANKSNFLQKNVILEEESLKTELLKEQSETRKEKIQKQQDEYKGMTQGSLNSLSGESGELEEPIESNEIDLTIDSDLRPKSSLQGIAGSNSISYTDEIEEEDYDQYYLDEYDEEDEEEIRLSNRYQSYLEGVKYNVDSAIQTITKIYNTYTLFSTKLTQMYSTRLDNFAKAKAKEEAAKFTKEDLEKNFKTLLNYIQVSVKTAANFVYINDTHAKRKLENIEAEIKTLIAKIKEQSNLYEAYKAIVTSILLMRDSLKEVQGIIDKNGVWY", "note": "Lines come from different studies, so protocols differ. Values joined by “and” are separate records of one study, mostly repeats; a detail may differ. ± marks the error that the study gave.", "chain of UniProt P00747 (whole entry, looked up)": "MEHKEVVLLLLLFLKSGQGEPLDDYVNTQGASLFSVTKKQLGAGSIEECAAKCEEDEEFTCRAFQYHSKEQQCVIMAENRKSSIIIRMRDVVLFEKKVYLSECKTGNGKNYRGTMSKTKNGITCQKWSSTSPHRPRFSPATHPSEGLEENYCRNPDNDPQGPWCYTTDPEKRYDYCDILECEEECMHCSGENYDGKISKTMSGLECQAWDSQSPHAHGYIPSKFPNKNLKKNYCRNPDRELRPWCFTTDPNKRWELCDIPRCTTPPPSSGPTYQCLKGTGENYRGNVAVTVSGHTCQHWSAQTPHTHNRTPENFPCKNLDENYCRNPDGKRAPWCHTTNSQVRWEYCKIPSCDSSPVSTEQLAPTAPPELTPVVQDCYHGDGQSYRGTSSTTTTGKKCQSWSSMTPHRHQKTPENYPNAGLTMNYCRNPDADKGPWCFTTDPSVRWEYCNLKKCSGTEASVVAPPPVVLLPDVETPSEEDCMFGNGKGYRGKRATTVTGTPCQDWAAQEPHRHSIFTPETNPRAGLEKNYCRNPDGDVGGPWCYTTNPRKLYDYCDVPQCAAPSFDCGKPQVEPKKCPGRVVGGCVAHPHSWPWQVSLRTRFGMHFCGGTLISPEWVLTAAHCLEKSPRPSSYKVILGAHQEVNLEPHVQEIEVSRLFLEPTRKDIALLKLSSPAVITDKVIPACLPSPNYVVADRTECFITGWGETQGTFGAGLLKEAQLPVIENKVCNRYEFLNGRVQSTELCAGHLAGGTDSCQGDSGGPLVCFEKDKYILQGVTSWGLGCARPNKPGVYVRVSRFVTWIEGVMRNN", "chain of UniProt P63096 (whole entry, looked up)": "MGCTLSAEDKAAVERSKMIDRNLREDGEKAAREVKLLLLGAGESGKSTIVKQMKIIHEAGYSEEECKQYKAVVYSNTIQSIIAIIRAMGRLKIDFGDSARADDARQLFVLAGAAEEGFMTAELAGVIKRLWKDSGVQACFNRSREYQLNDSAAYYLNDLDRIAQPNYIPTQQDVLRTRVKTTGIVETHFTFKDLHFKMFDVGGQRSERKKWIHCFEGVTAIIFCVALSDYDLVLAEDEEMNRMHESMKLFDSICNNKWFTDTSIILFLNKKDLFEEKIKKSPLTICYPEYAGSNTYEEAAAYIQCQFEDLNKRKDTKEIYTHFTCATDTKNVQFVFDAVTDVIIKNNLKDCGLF", "chain of UniProt P07589 (whole entry, looked up)": "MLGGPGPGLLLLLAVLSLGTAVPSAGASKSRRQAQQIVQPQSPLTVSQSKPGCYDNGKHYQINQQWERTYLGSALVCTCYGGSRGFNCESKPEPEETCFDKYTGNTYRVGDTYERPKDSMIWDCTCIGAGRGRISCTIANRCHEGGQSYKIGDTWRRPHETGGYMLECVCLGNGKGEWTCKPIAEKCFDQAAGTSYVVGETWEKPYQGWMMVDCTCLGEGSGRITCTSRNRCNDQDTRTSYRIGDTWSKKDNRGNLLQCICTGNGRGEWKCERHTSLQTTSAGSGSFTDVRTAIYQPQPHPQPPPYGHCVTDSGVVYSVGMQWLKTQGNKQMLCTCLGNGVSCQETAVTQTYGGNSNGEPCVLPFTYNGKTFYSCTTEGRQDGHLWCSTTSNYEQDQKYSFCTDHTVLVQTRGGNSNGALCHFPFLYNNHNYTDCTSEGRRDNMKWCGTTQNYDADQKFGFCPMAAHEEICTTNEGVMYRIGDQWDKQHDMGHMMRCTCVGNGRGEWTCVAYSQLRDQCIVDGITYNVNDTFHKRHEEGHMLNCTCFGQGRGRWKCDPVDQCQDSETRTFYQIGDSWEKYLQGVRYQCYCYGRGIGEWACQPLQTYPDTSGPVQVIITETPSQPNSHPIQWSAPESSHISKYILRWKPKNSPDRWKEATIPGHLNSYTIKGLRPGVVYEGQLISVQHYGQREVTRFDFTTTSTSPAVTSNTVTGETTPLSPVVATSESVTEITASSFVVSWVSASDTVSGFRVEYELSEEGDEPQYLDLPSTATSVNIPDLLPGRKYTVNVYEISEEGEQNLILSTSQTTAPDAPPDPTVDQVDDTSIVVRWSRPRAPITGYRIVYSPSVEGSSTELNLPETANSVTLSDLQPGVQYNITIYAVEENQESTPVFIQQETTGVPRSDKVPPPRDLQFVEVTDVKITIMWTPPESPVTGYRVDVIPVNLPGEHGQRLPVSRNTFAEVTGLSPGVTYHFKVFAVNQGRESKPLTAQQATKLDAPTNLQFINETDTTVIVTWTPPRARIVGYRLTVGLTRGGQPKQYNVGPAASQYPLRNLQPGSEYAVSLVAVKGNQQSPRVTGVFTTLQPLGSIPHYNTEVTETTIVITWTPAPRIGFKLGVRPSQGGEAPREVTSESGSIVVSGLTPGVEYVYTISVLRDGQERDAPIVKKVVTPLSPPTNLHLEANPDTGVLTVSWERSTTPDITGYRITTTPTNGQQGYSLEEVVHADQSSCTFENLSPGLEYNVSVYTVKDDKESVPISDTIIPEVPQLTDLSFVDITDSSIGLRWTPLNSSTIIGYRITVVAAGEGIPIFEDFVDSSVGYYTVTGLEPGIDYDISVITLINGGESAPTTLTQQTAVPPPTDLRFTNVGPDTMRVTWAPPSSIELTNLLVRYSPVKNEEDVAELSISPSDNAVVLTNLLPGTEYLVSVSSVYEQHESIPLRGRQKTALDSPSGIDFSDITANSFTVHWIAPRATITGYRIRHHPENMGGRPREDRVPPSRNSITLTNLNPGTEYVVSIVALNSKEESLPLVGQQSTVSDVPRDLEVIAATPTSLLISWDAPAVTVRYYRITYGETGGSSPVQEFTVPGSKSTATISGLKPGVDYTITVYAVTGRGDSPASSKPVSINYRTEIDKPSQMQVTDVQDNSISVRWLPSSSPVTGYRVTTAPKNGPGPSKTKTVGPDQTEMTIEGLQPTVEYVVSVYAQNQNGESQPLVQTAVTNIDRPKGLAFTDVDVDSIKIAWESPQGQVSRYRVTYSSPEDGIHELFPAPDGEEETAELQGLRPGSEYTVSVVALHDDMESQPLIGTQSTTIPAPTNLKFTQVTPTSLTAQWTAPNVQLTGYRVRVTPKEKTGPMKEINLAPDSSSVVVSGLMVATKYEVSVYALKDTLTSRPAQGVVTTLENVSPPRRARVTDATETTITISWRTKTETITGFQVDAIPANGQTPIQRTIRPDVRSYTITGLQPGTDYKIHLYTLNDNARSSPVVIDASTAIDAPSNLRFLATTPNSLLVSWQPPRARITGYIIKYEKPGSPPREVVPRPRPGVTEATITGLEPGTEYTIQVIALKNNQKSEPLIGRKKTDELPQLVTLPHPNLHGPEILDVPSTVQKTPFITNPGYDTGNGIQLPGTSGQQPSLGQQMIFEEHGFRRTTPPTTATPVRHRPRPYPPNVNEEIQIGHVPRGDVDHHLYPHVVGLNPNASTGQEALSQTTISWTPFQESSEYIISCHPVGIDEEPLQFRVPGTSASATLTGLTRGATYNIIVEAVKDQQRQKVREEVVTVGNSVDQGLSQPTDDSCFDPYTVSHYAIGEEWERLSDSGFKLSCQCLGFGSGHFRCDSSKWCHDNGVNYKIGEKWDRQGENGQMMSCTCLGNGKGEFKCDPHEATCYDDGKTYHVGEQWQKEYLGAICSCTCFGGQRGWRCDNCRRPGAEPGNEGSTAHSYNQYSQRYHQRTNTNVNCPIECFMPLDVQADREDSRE", "chain of UniProt P0DUB6 (whole entry, unmodified, looked up)": "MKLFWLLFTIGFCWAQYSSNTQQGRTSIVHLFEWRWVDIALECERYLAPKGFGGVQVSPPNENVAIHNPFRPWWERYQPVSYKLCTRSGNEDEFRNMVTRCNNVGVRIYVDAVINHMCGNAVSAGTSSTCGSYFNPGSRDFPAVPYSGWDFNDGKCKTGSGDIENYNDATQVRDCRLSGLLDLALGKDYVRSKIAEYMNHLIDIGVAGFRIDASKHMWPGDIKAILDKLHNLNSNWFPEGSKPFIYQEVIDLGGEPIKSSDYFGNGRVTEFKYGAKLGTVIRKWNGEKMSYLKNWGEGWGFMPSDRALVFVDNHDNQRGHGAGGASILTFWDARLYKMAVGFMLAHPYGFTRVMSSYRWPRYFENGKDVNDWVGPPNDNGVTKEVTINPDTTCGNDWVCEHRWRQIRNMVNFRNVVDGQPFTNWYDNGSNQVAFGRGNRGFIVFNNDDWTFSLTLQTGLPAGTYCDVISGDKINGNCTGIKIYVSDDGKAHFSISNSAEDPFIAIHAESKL", "chain of UniProt P35613 (whole entry, unmodified, looked up)": "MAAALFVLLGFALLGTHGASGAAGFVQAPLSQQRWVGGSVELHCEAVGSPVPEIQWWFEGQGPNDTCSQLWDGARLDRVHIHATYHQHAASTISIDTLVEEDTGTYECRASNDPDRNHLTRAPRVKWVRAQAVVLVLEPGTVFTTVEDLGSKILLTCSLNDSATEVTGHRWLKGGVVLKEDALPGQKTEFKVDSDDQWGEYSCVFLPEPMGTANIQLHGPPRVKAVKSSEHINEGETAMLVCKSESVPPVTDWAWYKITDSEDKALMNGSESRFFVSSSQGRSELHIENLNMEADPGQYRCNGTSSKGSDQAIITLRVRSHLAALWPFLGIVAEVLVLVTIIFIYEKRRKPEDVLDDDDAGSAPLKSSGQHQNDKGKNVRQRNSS"}
{"Substance": "B1 (PPP2R5A E378R)", "target or system": "Vif/CBFB/ELOB/ELOC (HIV-1/Homo sapiens)", "assay": "pull-down", "measurement": "binding", "result": "binds"}
{"Substance": "GPC fragment V4Y (lymphocytic choriomeningitis virus)", "target or system": "H2-D1/B2m (Mus musculus)", "assay": "flow cytometry", "test system": "RMA-S", "measurement": "half-life", "result": "> 1 h"}
{"Substance": "NATNVVIKV", "assay": "T cell recognition, HLA-B*07:02 tetramer staining", "test system": "peptide, CD8+ T cells, COVID-19 convalescent human subjects, HLA-B*07:02", "setting": "dose not given, 5 subjects tested", "measurement": "tetramer-reactive CD8+ T cell count", "result": 0}
{"Substance": "pilV 29-end (Neisseria meningitidis)", "target or system": "BSG 138-325 (Homo sapiens, UniProt P35613)", "assay": "AFM force spectroscopy", "setting": "pH 7.0, room temperature, NaCl 150 mM", "measurement": "interaction force", "result": "49 pN"}
{"Substance": "B2 (PPP2R5A E106R)", "target or system": "Vif/CBFB/ELOB/ELOC R127E (HIV-1/Homo sapiens)", "assay": "pull-down", "measurement": "binding", "result": "binds"}
{"Substance": "GPC fragment A3V (lymphocytic choriomeningitis virus)", "target or system": "H2-D1/B2m (Mus musculus)", "assay": "flow cytometry", "test system": "RMA-S", "measurement": "half-life", "result": "< 1 h"}
{"Substance": "BILF1 A125F (Epstein-Barr virus)", "target or system": "GNAI1 (Homo sapiens, UniProt P63096)", "assay": "IP3 accumulation", "test system": "HEK293", "scale": "relative to: wild-type BILF1, higher = more signaling", "measurement": "relative Gi signaling", "result": "76.8%"}
{"Substance": "cbpA fragment (Streptococcus pneumoniae)", "target or system": "CFH 508-567 M497E (Homo sapiens, UniProt P08603)", "assay": "ITC", "measurement": "Kd", "result": "206 ± 20 nM"}
{"Substance": "Dengue virus E protein virion, UV-inactivated (Dengue virus serotype 2)", "target or system": "PLG 376-562 (Homo sapiens, UniProt P00747)", "assay": "BLI", "measurement": "Kd", "result": "8.1 nM and 9.8 nM"}
{"Substance": "B3", "target or system": "Scn2a whole channel (Rattus norvegicus, UniProt P04775)", "assay": "fluorescence decrease after washing", "test system": "peptide, neurons", "measurement": "dissociation half-time", "result": "65 min"}
{"Substance": "B4 (abpA 1-195)", "target or system": "AMY1A mature W134A/W203A/Y276A/W284A/W316A/W388A (Homo sapiens, UniProt P0DUB6)", "assay": "SPR", "setting": "apparent", "measurement": "Kd", "result": "14900 nM"}
{"Substance": "GTCTTTAATAATTAAACTAGTGTCTTGACAGATGTAAACAACAGGTATAAAC (dsDNA)", "target or system": "niaR 1-174 K28A (Streptococcus mutans, UniProt Q8DVX8)", "assay": "EMSA", "test system": "double-stranded DNA, one strand shown", "measurement": "binding", "result": "binds"}
{"Substance": "EEFEPSTQYEY", "assay": "T cell recognition, HLA-B*07:02 tetramer staining", "test system": "peptide, CD8+ T cells, COVID-19 convalescent human subjects, HLA-B*07:02", "setting": "dose not given, 5 subjects tested", "measurement": "tetramer-reactive CD8+ T cell count", "result": 4}
{"Substance": "B5 (bbk32 21-354)", "target or system": "FN1 mature (Bos taurus, UniProt P07589)", "assay": "ELISA", "measurement": "Kd", "result": "16.2 nM"}
{"note": "Excerpt of the above:"}
{"Substance": "B1 (PPP2R5A E378R)", "target or system": "Vif/CBFB/ELOB/ELOC (HIV-1/Homo sapiens)", "assay": "pull-down", "measurement": "binding", "result": "binds"}
{"Substance": "GPC fragment V4Y (lymphocytic choriomeningitis virus)", "target or system": "H2-D1/B2m (Mus musculus)", "assay": "flow cytometry", "test system": "RMA-S", "measurement": "half-life", "result": "> 1 h"}
